Measurements of several laboratories.
± gives the spread as reported.
SRC SH3-SH2-kinase domain: Proto-oncogene tyrosine-protein kinase Src, SH3-SH2-kinase domain (SRC, Gallus gallus, UniProt P00523)
Genome polyprotein NS3 helicase domain: Genome polyprotein, NS3 helicase domain (Hepatitis C virus genotype 1b, UniProt Q9WMX2)

For `COc1ccc(C(=O)Nc2n[nH]c3ccc(NC(=O)C(CCN)c4cccc(Cl)c4)cc23)cc1` (centres unmarked), the IC50 was 1.9 µM (Proto-oncogene tyrosine-protein kinase Src, SH2 (SRC, Gallus gallus, UniProt P00523, G530I/P529E/Q528E); cell-free assay, inhibitor).
For `CCNC(=S)NCC`, the IC50 was over 25000 µM (Urea transporter 2 (Rattus norvegicus, UniProt Q62668); urea transport, inhibitor; MDCK expressing rat UT-A1; 20 min).
For `C#CCOc1cccc(Oc2nc3c(c(=O)n(CCCO)c(=O)n3C)n2Cc2ccc(C3(C(F)(F)F)N=N3)cc2)c1`, the IC50 was 0.002 µM (TRPC4/TRPC1 (TRPC1/TRPC4, Homo sapiens, UniProt P48995+Q9UBN4); calcium influx, inhibitor, Fura-2; HEK T-REx expressing TRPC1/TRPC4; together with: englerin A 30 nM).
`COc1cccc(Cc2cc(CCC(=O)NCCNc3cccc4c(S(=O)(=O)O)cccc34)nn(CC(=O)Nc3ccc(Br)cc3)c2=O)c1` has an IC50 of 1.3 ± 0.6 µM (N-formyl peptide receptor 2 (FPR2, Homo sapiens, UniProt P25090); calcium mobilization, antagonist; HL-60 transfected with target; together with: WKYMVM 5 nM).
The IC50 of `CN1C(=O)[C@H](Cc2ccc(F)cc2)NC(=O)[C@H](CC2CCCCC2)NC(=O)/C=C\C(=O)N[C@H](C(=O)O)CCNC(=O)[C@@H]1CCCNC(=O)c1cnccn1` is reported as 3 ± 0.51 µM (SRC SH3-SH2-kinase domain; enzyme activity, inhibitor, Z'-LYTE FRET; Src residues 83-533, together with: 50 µM ATP).
`O=S(=O)(NCc1nc(-c2ccccc2)no1)c1cc(Cl)ccc1Cl` gave an IC50 of 16 µM (Trypanothione synthetase (Trypanosoma brucei, UniProt Q586P2); enzyme activity, inhibitor).
With `C/C=C/C(=O)Nc1ccc2nc(NCCCCCN(C)C)nc(NCCCCCCN(C)C)c2c1` the IC50 was 11 ± 3.1 µM (CHD1, chromodomains (Homo sapiens, UniProt O14646)).
For `COc1ccc2nc3cc(Cl)ccc3c(NCCCCc3c(N)nc(N)nc3N)c2c1`, the IC50 was 40 ± 11 µM (Muscleblind-like protein 1, with (CCUG)6 RNA (Homo sapiens, UniProt Q9NR56); MBNL1-RNA binding, gel mobility shift; 100 nM tRNA, together with: (CCUG)6 RNA, 350 nM MBNL1).
`Cc1ccc2nc(-c3ccc4nc(-c5ccc6nc(-c7ccc(N)cc7)sc6c5)sc4c3)sc2c1S(=O)(=O)O` gave an IC50 of 15 ± 4 µM (Genome polyprotein NS3 helicase domain; ATPase activity, inhibitor, malachite green).
`COc1ccc(C(=O)/C=C/c2ccc(O)cc2)c(O)c1CC=C(C)C` has an IC50 of 12 µM (Dopamine beta-hydroxylase (Homo sapiens, UniProt P09172); enzyme activity, inhibitor).
The IC50 of `CCNC(=O)[C@@H]1CCNC(=O)[C@H](CCCNC(=O)c2cnccn2)NC(=O)[C@H](Cc2ccccc2)NC(=O)[C@H](CC2CCCCC2)NC(=O)/C=C\C(=O)N1` is reported as at most 0.004 µM (SRC SH3-SH2-kinase domain; enzyme activity, inhibitor, Z'-LYTE FRET; Src residues 83-533, together with: 50 µM ATP).
For `CCOC(=O)N1CCC(Oc2nc3c(c(=O)n(C)c(=O)n3C)n2Cc2cccc(C)c2)CC1`, the IC50 was over 57 µM (15-hydroxyprostaglandin dehydrogenase [NAD(+)] (HPGD, Homo sapiens, UniProt P15428)).
`CC(=N)NCc1cccc(CN)c1` gave an IC50 of 744 ± 52 µM (Nitric oxide synthase 3 (Rattus norvegicus, UniProt Q62600); cGMP accumulation; rat aortic rings; 25 min preincubation, together with: acetylcholine 10 µM).
The IC50 of `Cc1nc2ccc(Cc3c[nH]c4ncc(C(F)(F)F)cc34)cc2o1` is reported as 0.634 µM (Fibroblast growth factor receptor 3 (FGFR3, Homo sapiens, UniProt P22607); enzyme activity, inhibitor).
For `CCC(NC(=O)C(CC(C)C)NC(=O)NCc1ccccc1)C(=O)C(=O)NCc1cc(F)cc(OC)c1` (centres unmarked), the IC50 was 0.092 µM (Calpain-2 catalytic subunit (Capn2, Mus musculus, UniProt O08529); enzyme activity, inhibitor; mouse pons-cerebellum membranes; together with: calcium 2 mM).
The IC50 of `CC(C)(C)C(=O)Cn1nnc(-c2cccc(C(F)(F)F)c2)n1` is reported as 3.5 µM (Trypanothione synthetase (Trypanosoma brucei, UniProt Q586P2); enzyme activity, inhibitor).
`CC(C)=CCCC1=CCC2C(=O)c3ccccc3C(=O)C2C1` (centres unmarked) gave an IC50 of over 100 µM (DNA topoisomerase IB (Leishmania donovani, UniProt A0A3Q8IHS4+Q8WQM6); DNA relaxation activity, inhibitor; together with: supercoiled plasmid DNA).
`CN(Cc1nc2ccccc2c(=O)[nH]1)C(=O)Cc1csc(-c2ccc(F)cc2)n1` gave an IC50 of 19.9 ± 2.7 µM (Trypanothione synthetase (Trypanosoma brucei brucei, UniProt Q586P2); enzyme activity, BIOMOL Green phosphate release; 1 h preincubation).
For `O=C(Cc1c(F)cccc1F)Nc1cc(OCc2ccc(Cl)cc2)ccn1`, the IC50 was 31.9 µM (Phosphatidylinositol 3,4,5-trisphosphate 5-phosphatase 1, Ptase-C2 domains (INPP5D, Homo sapiens, UniProt Q92835); enzyme activity, inhibitor).
`COCCSc1nc(-c2cccs2)cc(-c2ccc(Cl)cc2)c1C#N` has an IC50 of over 100 µM (Histone acetyltransferase KAT2A (KAT2A, Homo sapiens, UniProt Q92830); enzyme activity, inhibitor, radiometric).
`NC(=O)[C@@H]1CCCNC(=O)[C@H](Cc2ccc([N+](=O)[O-])cc2)NC(=O)[C@H](Cc2ccc(O)cc2)NC(=O)[C@H](CC2CCCCC2)NC(=O)/C=C/C(=O)N1` gave an IC50 of 0.79 ± 0.005 µM (SRC SH3-SH2-kinase domain; enzyme activity, inhibitor, Z'-LYTE FRET; Src residues 83-533, together with: 50 µM ATP).
`N#C/C(=C\c1ccc(O)c(O)c1)C(=O)c1ccc(O)c(O)c1` gave an IC50 of over 100 µM (Genome polyprotein NS3 helicase domain; helicase activity, molecular beacon helicase; together with: RNA substrate).
`CC(=O)NC/C(=C\F)COc1cccc(Cn2c(=S)[nH]c(=O)c3[nH]cnc32)c1` gave an IC50 of 0.128 µM (Myeloperoxidase (MPO, Homo sapiens, UniProt P05164); enzyme activity, inhibitor, fluorescence).
The IC50 of `COC(=O)C[C@H](NC(=O)[C@H](C)NC(=O)[C@@H](NC(=O)OCc1ccccc1)C(C)C)C(=O)CF` is reported as 0.024 µM (Caspase-1 (CASP1, Homo sapiens, UniProt P29466); enzyme activity, inhibitor, fluorescence).
With `CC(C)(O)Cn1cc(-c2ccc3nc(OC(F)F)ccc3c2)c2c(N)ncnc21` the IC50 was 0.0009 µM (Calmodulin-domain protein kinase 1, putative (Cryptosporidium parvum, UniProt A3FQ16); enzyme activity, inhibitor).
`CC(C)NCc1ccc(C[C@@H]2NC(=O)[C@@H](Cc3c[nH]c4ccccc34)NC(=O)[C@H](Cc3ccccc3)NC(=O)[C@@H](N)CSSC[C@@H](C(=O)N[C@H](C(N)=O)[C@@H](C)O)NC(=O)[C@H](Cc3ccc(O)c(I)c3)NC2=O)cc1` gave an IC50 of 0.889 µM (Somatostatin receptor type 1 (SSTR1, Homo sapiens, UniProt P30872); ligand displacement, radioligand; cell membranes).
With `Cc1nc(Nc2ncc(C(=O)Nc3c(C)cccc3Cl)s2)cc(N2CCN(CCOC(=O)CCCCCCCCCCN)CC2)n1` the IC50 was 0.0049 µM (Tyrosine-protein kinase ABL1 (ABL1, Homo sapiens, UniProt P00519)).
`O=C(O)c1csc(S(=O)(=O)NCc2ccc3c(c2)OCO3)c1` has an IC50 of 46.7 ± 4.9 µM (DNA repair protein RAD52 homolog, with RPA and ssDNA (RAD52, Homo sapiens, UniProt P43351); inhibitor, FRET).
The IC50 of `NS(=O)(=O)c1ccc(-n2nc(C(F)(F)F)cc2-c2ccc(F)cc2F)cc1` is reported as 2.8 µM (Cyclooxygenase-2 (Canis lupus familiaris, UniProt Q8SPQ9); PGE2 formation, inhibitor; dog whole blood; together with: LPS).
The IC50 of `CC1=CC(C)=[N+]2C1=C(CCCC(=O)NCCCCCC(=O)NCCCCCC(=O)NCCCC[C@H](NC(=O)N[C@@H](CCC(=O)O)C(=O)O)C(=O)O)c1c(C)cc(C)n1[B-]2(F)F` is reported as 0.0964 µM (Glutamate carboxypeptidase 2 (FOLH1, Homo sapiens, UniProt Q04609); ligand displacement in cells, radioligand).
`Nc1nc(Cl)nc2c1ncn2Cc1cc(OCC(F)F)cc(OC(F)F)c1` has an IC50 of 0.011 µM (High affinity cAMP-specific and IBMX-insensitive 3',5'-cyclic phosphodiesterase 8A (PDE8A, Homo sapiens, UniProt O60658); enzyme activity, inhibitor, radiometric).
For `CCC(=O)N1CCN(c2ccc(N(C)C(=O)C(C)(C)c3cc(C(F)(F)F)cc(C(F)(F)F)c3)c(-c3ccccc3C)c2)CC1`, the IC50 was 0.347 µM (Substance-P receptor (TACR1, Homo sapiens, UniProt P25103); nuclear ERK activity, antagonist, FRET biosensor; HEK293T; 30 to 90 min preincubation, together with: substance P 10 nM).

Some of these lines once more:
With `CC(C)(O)Cn1cc(-c2ccc3nc(OC(F)F)ccc3c2)c2c(N)ncnc21` the IC50 was 0.0009 µM (Calmodulin-domain protein kinase 1, putative (Cryptosporidium parvum, UniProt A3FQ16); enzyme activity, inhibitor).
`CC(C)NCc1ccc(C[C@@H]2NC(=O)[C@@H](Cc3c[nH]c4ccccc34)NC(=O)[C@H](Cc3ccccc3)NC(=O)[C@@H](N)CSSC[C@@H](C(=O)N[C@H](C(N)=O)[C@@H](C)O)NC(=O)[C@H](Cc3ccc(O)c(I)c3)NC2=O)cc1` gave an IC50 of 0.889 µM (Somatostatin receptor type 1 (SSTR1, Homo sapiens, UniProt P30872); ligand displacement, radioligand; cell membranes).
With `Cc1nc(Nc2ncc(C(=O)Nc3c(C)cccc3Cl)s2)cc(N2CCN(CCOC(=O)CCCCCCCCCCN)CC2)n1` the IC50 was 0.0049 µM (Tyrosine-protein kinase ABL1 (ABL1, Homo sapiens, UniProt P00519)).
`O=C(O)c1csc(S(=O)(=O)NCc2ccc3c(c2)OCO3)c1` has an IC50 of 46.7 ± 4.9 µM (DNA repair protein RAD52 homolog, with RPA and ssDNA (RAD52, Homo sapiens, UniProt P43351); inhibitor, FRET).
